Results gathered from unrelated publications.
“And” joins repeats or separate records; there may be more than shown. ± marks the error that the study gave.
CYP1A1: Cytochrome P450 1A1 (CYP1A1, Homo sapiens, UniProt P04798)
Sequence of UniProt P04798 (whole entry, looked up): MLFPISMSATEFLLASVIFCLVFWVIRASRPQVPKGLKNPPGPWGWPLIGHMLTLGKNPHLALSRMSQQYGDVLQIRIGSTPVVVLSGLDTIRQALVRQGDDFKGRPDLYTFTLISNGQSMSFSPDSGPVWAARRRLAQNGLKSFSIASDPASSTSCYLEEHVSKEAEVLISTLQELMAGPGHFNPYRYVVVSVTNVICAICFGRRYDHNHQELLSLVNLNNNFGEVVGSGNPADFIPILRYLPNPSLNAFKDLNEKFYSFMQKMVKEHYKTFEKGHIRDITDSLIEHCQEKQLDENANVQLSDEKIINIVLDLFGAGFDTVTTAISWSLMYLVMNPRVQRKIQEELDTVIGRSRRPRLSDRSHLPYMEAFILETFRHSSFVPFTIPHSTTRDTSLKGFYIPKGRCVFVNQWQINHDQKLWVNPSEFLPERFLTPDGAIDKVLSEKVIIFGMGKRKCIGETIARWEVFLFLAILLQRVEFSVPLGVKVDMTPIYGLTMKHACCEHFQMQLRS
FAAH: Fatty-acid amide hydrolase 1 (FAAH, Homo sapiens, UniProt O00519)
Sequence of UniProt O00519 (whole entry, looked up): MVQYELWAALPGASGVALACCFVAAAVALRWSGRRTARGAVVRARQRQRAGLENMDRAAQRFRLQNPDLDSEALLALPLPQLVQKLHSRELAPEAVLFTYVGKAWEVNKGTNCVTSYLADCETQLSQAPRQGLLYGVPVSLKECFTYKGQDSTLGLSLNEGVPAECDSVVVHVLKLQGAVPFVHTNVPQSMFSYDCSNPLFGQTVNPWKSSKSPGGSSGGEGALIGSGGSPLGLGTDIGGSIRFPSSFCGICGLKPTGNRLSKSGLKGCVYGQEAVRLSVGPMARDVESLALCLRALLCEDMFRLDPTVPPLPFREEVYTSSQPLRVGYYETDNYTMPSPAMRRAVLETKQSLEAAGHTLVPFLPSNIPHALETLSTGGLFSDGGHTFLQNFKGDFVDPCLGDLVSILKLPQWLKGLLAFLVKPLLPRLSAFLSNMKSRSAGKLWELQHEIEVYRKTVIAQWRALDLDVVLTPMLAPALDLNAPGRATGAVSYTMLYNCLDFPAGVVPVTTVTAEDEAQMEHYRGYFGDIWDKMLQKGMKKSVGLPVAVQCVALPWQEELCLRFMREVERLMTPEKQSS
ABCC1: Multidrug resistance-associated protein 1 (ABCC1, Homo sapiens, UniProt P33527)
Sequence of UniProt P33527 (whole entry, looked up): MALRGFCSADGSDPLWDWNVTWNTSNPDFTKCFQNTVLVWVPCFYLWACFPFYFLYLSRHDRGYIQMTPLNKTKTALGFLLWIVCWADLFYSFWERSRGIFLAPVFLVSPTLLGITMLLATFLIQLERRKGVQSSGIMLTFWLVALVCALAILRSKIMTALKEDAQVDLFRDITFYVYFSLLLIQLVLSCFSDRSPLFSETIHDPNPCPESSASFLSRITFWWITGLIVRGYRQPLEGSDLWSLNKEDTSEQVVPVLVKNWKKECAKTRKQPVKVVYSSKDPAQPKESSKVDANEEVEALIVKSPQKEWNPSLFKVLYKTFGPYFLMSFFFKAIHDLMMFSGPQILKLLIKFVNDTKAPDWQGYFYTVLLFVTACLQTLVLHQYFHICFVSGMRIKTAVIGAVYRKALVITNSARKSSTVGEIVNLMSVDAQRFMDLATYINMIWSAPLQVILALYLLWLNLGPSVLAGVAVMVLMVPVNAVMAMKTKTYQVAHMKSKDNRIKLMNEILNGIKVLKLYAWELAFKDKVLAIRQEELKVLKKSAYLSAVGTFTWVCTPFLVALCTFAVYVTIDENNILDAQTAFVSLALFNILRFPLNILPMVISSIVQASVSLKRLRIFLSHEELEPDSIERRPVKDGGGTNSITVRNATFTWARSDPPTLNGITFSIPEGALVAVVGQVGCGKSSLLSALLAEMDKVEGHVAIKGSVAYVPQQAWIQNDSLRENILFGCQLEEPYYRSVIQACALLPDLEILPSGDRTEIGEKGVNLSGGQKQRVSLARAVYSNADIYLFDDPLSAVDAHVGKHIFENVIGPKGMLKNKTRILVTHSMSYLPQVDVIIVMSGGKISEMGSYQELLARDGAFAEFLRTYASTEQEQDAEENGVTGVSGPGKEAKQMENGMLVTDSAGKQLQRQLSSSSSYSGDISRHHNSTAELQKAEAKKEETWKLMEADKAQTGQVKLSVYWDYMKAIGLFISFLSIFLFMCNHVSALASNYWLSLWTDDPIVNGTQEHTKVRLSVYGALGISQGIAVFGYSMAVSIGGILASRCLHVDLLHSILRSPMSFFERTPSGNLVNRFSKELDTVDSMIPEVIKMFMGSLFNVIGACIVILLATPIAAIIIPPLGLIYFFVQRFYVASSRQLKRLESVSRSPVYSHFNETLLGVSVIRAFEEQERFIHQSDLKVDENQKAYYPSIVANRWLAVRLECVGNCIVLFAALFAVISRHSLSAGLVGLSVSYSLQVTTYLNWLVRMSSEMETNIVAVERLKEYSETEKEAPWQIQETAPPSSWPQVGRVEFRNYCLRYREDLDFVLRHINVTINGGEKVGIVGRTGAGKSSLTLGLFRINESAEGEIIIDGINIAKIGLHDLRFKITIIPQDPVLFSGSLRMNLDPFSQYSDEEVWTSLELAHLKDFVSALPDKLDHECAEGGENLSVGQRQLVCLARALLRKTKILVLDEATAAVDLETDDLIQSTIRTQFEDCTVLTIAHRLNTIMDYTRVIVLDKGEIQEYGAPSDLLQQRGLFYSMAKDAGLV
PARP1: Poly [ADP-ribose] polymerase 1 (PARP1, Homo sapiens, UniProt P09874)
Sequence of UniProt P09874 (whole entry, looked up): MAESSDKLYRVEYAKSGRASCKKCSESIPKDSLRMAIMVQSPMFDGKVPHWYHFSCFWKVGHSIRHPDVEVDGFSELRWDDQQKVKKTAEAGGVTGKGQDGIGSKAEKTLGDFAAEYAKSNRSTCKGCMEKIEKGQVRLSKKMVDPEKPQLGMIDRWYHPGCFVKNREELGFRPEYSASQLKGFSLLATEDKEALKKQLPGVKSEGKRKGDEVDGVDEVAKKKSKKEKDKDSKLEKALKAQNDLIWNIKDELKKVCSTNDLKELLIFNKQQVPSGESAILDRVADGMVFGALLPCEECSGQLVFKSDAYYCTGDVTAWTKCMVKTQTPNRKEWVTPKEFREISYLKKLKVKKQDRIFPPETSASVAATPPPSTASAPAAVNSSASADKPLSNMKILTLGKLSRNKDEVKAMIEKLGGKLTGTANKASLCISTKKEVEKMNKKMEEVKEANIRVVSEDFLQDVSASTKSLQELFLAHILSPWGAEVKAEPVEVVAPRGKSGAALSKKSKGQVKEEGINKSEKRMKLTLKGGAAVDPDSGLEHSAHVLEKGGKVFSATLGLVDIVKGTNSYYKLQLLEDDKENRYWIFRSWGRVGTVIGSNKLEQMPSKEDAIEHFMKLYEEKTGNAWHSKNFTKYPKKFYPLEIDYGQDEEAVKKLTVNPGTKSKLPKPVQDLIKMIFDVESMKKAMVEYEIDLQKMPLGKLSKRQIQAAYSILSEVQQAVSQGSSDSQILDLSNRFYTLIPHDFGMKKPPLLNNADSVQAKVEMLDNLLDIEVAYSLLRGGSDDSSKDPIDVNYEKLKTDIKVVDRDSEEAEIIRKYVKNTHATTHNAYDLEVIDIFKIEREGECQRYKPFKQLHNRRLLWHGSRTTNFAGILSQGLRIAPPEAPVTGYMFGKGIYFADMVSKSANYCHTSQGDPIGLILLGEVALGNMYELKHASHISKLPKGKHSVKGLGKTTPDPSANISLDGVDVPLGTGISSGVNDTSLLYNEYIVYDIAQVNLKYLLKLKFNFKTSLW
CXCR4: C-X-C chemokine receptor type 4 (CXCR4, Homo sapiens, UniProt P61073)
Sequence of UniProt P61073 (whole entry, looked up): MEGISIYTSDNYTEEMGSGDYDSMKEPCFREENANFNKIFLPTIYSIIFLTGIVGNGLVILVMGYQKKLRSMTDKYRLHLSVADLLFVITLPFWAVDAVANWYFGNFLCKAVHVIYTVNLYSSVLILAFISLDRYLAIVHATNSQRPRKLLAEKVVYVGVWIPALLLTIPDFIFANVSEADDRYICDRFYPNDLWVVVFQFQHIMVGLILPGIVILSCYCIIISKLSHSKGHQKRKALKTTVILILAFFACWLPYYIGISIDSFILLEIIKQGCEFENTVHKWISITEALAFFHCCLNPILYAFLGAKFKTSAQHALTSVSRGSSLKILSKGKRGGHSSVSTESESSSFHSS
Sequence of UniProt Q99808 (whole entry, looked up): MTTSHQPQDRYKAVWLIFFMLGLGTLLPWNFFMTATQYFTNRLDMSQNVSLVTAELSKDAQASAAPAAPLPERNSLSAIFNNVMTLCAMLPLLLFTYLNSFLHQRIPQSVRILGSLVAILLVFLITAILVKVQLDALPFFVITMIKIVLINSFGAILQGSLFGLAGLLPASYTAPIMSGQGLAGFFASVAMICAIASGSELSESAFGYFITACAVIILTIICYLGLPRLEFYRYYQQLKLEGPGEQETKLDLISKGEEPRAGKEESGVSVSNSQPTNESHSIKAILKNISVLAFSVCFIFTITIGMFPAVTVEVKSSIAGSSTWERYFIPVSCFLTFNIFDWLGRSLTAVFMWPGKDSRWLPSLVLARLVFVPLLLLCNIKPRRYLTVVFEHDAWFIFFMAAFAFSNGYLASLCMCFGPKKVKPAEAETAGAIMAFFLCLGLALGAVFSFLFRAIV
Sequence of UniProt P32745 (whole entry, looked up): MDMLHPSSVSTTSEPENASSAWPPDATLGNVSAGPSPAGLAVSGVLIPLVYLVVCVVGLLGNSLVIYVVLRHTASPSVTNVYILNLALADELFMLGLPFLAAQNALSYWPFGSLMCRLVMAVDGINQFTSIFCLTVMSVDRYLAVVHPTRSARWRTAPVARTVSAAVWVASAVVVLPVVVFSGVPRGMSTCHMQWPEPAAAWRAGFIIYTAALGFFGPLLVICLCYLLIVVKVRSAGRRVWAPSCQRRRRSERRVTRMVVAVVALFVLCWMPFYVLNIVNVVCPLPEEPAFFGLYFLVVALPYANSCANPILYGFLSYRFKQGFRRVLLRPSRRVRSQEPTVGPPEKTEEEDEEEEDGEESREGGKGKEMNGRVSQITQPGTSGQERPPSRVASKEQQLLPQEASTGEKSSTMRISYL

| SMILES | target | test | system | conditions | IC50 |
| --- | --- | --- | --- | --- | --- |
| C#Cc1ccc2ccc(=O)oc2c1 | CYP1A1 | enzyme activity, inhibitor, fluorescence | – | 6 min, pH 7.6 | > 50 µM |
| COc1cccc(Cn2cc(COC(=O)NCc3cn(Cc4ccccc4OC)nn3)nn2)c1 | FAAH | enzyme activity, inhibitor, fluorescence | – | cell membranes | 0.0391 µM |
| COC(=O)C(Cc1ccc(CCCC(=O)NCCC(=O)Nc2ccc3nc(C)sc3c2)cc1)C(=O)OC | L-lactate dehydrogenase B chain (LDHB, Homo sapiens, UniProt P07195) | inhibitor, NADH fluorescence | – | pyruvate competition, with: 150 µM NADH, 200 µM pyruvate | > 200 µM |
| O=C(NC1CCCCC1)OCc1cn(Cc2ccccc2Cl)nn1 | FAAH | enzyme activity, inhibitor, fluorescence | – | cell membranes | 1.07 µM |
| OCCN1CCN(CCC=C2c3ccccc3Sc3ccc(C(F)(F)F)cc32)CC1 | USP46, with UAF1 (Homo sapiens, UniProt P62068) | deubiquitinase activity, inhibitor | – | no inhibition up to 114 µM, with: K63-linked diubiquitin | > 114 µM |
| O=c1[nH]c2ccccc2n1C1CCN(CCCC(c2ccc(F)cc2)c2ccc(F)cc2)CC1 | ABCC1 | efflux, inhibitor, flow cytometry | SupT1 cells overexpressing ABCC1 | with: tetramethylrosamine 500 nM | 7.5 ± 2.7 µM |
| O=C(O)c1ccc(O)cc1 | FAAH | enzyme activity, inhibitor, fluorimetric | – | 60 min preincubation, recombinant enzyme, with: OMP substrate 50 µM | > 100 µM |
| CC1=C(COc2ccc(C(=O)O)cc2)C(=O)c2ccccc2C1=O | Thioredoxin reductase 1, cytoplasmic (TXNRD1, Homo sapiens, UniProt Q16881) | enzyme activity, inhibitor | – | pH 7.4, with preincubation | 2 µM |
| CC(=O)NO | Urease subunit alpha, with UreA, UreB (ureC, Proteus mirabilis, UniProt P17086) | whole-cell urease activity, inhibitor | – | 15 min preincubation, pH 5.5, 37 °C, with: 5 mM urea | 64.6 ± 3 µM |
| CN1CCN(C[C@H]2COc3cccc(C(N)=O)c3O2)CC1 | PARP1 | – | – | – | > 5 µM |
| O=c1cc(N2CCOCC2)oc2c(OCc3ccccc3)cccc12 | Phosphatidylinositol 4,5-bisphosphate 3-kinase catalytic subunit beta isoform (PIK3CB, Homo sapiens, UniProt P42338, E858H) | enzyme activity, inhibitor | – | – | 0.13 µM |
| CC(C)NCc1ccc(C[C@@H]2NC(=O)[C@H](N(C)C(=O)c3ccc4ccccc4c3)NC(=O)[C@H](Cc3ccccc3)NC(=O)[C@H](N)CSSC[C@@H](C(=O)N[C@@H](Cc3ccc4ccccc4c3)C(N)=O)NC(=O)[C@H](Cc3ccccc3)NC2=O)cc1 | Somatostatin receptor type 3 (SSTR3, Homo sapiens, UniProt P32745) | ligand displacement, radioligand | – | cell membranes | 0.329 µM and 0.729 µM |
| C[C@H]1C[C@H]2[C@@H]3CCC4=CC(=O)C=C[C@]4(C)[C@@]3(Cl)[C@@H](O)C[C@]2(C)[C@@]1(O)C(=O)CO | Vascular endothelial growth factor receptor 1 (FLT1, Homo sapiens, UniProt P17948) | – | – | – | > 10 µM |
| Nc1ncnc2c1ncn2[C@@H]1O[C@H](COP(=O)(O)OP(=O)(O)C(Cl)(Cl)P(=O)(O)O)[C@@H](O)[C@H]1O | Receptor-type tyrosine-protein kinase FLT3 (FLT3, Homo sapiens, UniProt P36888) | enzyme activity, inhibitor, HotSpot kinase | – | with: ATP 1 µM | 0.12 µM |
| Cn1c(S)nc2ccccc21 | mbtI (Mycobacterium tuberculosis, UniProt P9WFX1) | enzyme activity, inhibitor, continuous fluorescence | – | with: chorismate | 83.9 ± 4.7 µM |
| O=C(Nc1cc(F)c(Cl)c(F)c1)c1cc(S(=O)(=O)N2CCOCC2)c(Cl)cc1Cl | Lysophosphatidic acid receptor 3 (LPAR3, Homo sapiens, UniProt Q9UBY5) | Ca2+ mobilization, antagonist | RH7777 | with: LPA at EC50 | > 100 µM |
| c1cc(CNCCCNC2CCCCC2)nc(CNc2nc(N3CCNCC3)nc3[nH]cnc23)c1 | CXCR4 | ligand displacement, radioligand | – | cell membranes | 0.0329 µM |
| CC1=NN(c2cccc(C(=O)O)c2)C(=O)/C1=C\c1ccc(-c2ccc(Cl)c(C(=O)NC3CCOCC3)c2)o1 | DNA repair protein complementing XP-A cells (Homo sapiens, UniProt P23025) | binding to cisplatin-DNA, EMSA | – | concentration not given, full-length XPA | ~40 µM |
| CN(C)c1ccc(C(=C2C=CC(=[N+](C)C)C=C2)c2ccc(N(C)C)cc2)cc1 | Cell division cycle 7-related protein kinase, with DBF4 (CDC7, Homo sapiens, UniProt O00311) | enzyme activity, inhibitor, ADP-Glo luminescence | – | with: ATP 12.5 µM | 12.8 ± 2.57 µM |
| COc1ccc(-c2cc(=O)c3c(OC)c([C@@H]4O[C@H](C(=O)O)[C@@H](O)[C@H](O)[C@H]4O)c(OC)cc3o2)cc1OC | Glycogen synthase kinase-3 beta (GSK3B, Homo sapiens, UniProt P49841) | enzyme activity, inhibitor, ADP detection | – | – | 237 µM |

| SMILES | target | test | system | conditions | IC50 |
| --- | --- | --- | --- | --- | --- |
| CC[n+]1c(/C=C/N(C)c2ccccc2)n(-c2ccccc2)c2ccc(-c3nc4ccccc4s3)cc21 | Proteasome Macropain subunit MB1 (PSMB5, Homo sapiens, UniProt P28074) | enzyme activity | – | with: Suc-LLVY-AMC substrate, ATP | 1.5 ± 0.3 µM |
| COc1ccc(-c2nn(-c3ccccc3)cc2C2CC(c3ccc(Br)cc3)=NN2C(=O)CCC(=O)O)cc1 (stereo not drawn) | Replication protein A 70 kDa DNA-binding subunit (RPA1, Homo sapiens, UniProt P27694) | protein-nucleic acid interaction, inhibitor, mobility shift | – | – | > 100 µM |
| CS(=O)(=O)OC[C@H]1COc2c(cccc2C(N)=O)O1 | PARP1 | – | – | – | > 5 µM |
| COc1cccc2cc(-c3nnc(SCC(=O)Nc4ccc(C)cc4)n3-c3ccccc3)oc12 | fungal tyrosinase | enzyme activity, inhibitor, dopachrome absorbance | – | pH 6.8, 37 °C, with: L-tyrosine substrate | 1.7 ± 3.93 µM |
| O=C(CS)NCCCCCC(=O)Nc1ccccc1 | Histone deacetylase 8 (HDAC8, Homo sapiens, UniProt Q9BY41) | enzyme activity, inhibitor | – | – | 14.1 µM |
| COc1cc(/C=C/C(=O)CC(=O)/C=C/c2ccc(O)c(OC)c2)ccc1O | Hsd3b1 (Rattus norvegicus, UniProt P22071) | enzyme activity, inhibitor | rat testicular microsomes | lower bound from 100 µM screen, with: pregnenolone | < 100 µM |
| COc1ccc(CCN2CCC(Nc3nc4ccccc4n3Cc3ccc(F)cc3)CC2)cc1 | Microtubule-associated protein tau (MAPT, Homo sapiens, UniProt P10636) | ligand displacement, radioligand | – | – | > 10 µM |
| Nc1ncnc2c1ncn2[C@@H]1O[C@H](COP(=O)(O)O)[C@@H](O)[C@H]1O | nucleoside diphosphate kinase A/B human | autophosphorylation, inhibitor | native membranes | 4 °C, biphasic curve, unreliable | ~200 µM |
| CC(=O)O.[Cu+2].c1ccc(CN2CCCN3CCN(CCCN(Cc4ccccc4)CC3)CC2)cc1 | CXCR4 | ligand displacement, flow cytometry | – | – | 0.0298 µM |
| CC(=O)NNS(=O)(=O)c1ccc2c(c1)n(C)c(=O)c(=O)n2C | Dipeptidyl peptidase 4 (DPP4, Homo sapiens, UniProt P27487) | enzyme activity, inhibitor, fluorescence | – | – | 8.5e-05 µM |
| C[C@H]1Oc2cc(cnc2N)-c2c(nn(C)c2C#N)CN(C)C(=O)c2ccc(F)cc21 | Equilibrative nucleoside transporter 1 (SLC29A1, Homo sapiens, UniProt Q99808) | transporter uptake, inhibitor, radiometric | – | – | 2.5 µM and ~2.5 µM |
| O=C(O)c1cc(Br)c2ccc(Br)cc2c1 | Glutamate NMDA receptor; Grin1/Grin2a (Grin1/Grin2a, Rattus norvegicus, UniProt P35439+Q00959) | ion current, two-electrode voltage clamp | – | oocytes | 19.3 µM |
| c1nc2c(NCc3cn(CCCNCCCNC4CCCCC4)nn3)nc(N3CCNCC3)nc2[nH]1 | CXCR4 | reporter gene, antagonist | – | – | 0.000167 µM |
| O=C(O)[C@H]1NCC[C@@H]1[C@H](C(=O)O)c1ccccc1 | AMPA receptor, rat | binding | cortical synaptosomes | with: [3H]-AMPA | > 100 µM |
| C#Cc1cc2oc(=O)ccc2cc1OC | CYP1A1 | enzyme activity, inhibitor, fluorescence | – | 6 min, pH 7.6 | 48.5 µM |
| O=C(CSc1nc2ccccc2c(=O)n1-c1ccccc1)Nc1ccc(S(=O)(=O)NC(=S)Nc2ccccc2)cc1 | PARP1 | enzyme activity, inhibitor, absorbance | – | – | 0.0789 µM |
| CN1CCN(C[C@@H]2COc3c(cccc3C(N)=O)O2)CC1 | PARP1 | – | – | – | > 5 µM |
| CN1CCN(C2=Nc3ccccc3Oc3ccc(Cl)cc32)CC1 | ABCC1 | efflux, inhibitor | SupT1-Vin overexpressing ABCC1 | with: DiOC2(3) 100 nM | 12.9 ± 8 µM |
| CCC(NC(=O)[C@H](CC(C)C)NC(=O)OCc1ccccc1)C(=O)C(=O)NCc1cc(OC)cc(OC)c1 (stereo partly drawn) | Calpain-2 catalytic subunit (Capn2, Mus musculus, UniProt O08529) | enzyme activity, inhibitor | mouse pons-cerebellum membranes | with: calcium 2 mM | 0.044 µM |
